# Measurements of several laboratories.
# Each line is one published result; not all experiments were run side by side. ± gives the spread as reported.
# Cell line: Caco-2 monolayer
SMILES,test,conditions,how to read,quantity,value
CC[C@]1(O)C[C@@H]2CN(CCc3c([nH]c4ccccc34)[C@@](C(=O)OC)(c3cc4c(cc3OC)N(C)[C@H]3[C@@](O)(C(=O)OC)[C@H](OC(C)=O)[C@]5(CC)C=CCN6CC[C@]43[C@@H]65)C2)C1,transwell permeability,"10 µM, with: verapamil",baseline: Papp B-A over Papp A-B,efflux ratio,3
CCCCCCC/C=C/C=C/C(=O)NCC(C)C,,"concentration not given, outcome: no effect, with: cichoric acid or Echinacea extract components",,permeability,no effect
Cc1cc(O)c2c(c1)C(=O)c1cc(O)cc(O)c1C2=O,,"in Rhizoma extract, extract 0.025 mg/mL",baseline: Papp(B-A) over Papp(A-B),efflux ratio,1.51
COC(=O)N[C@H](C(=O)N[C@@H](Cc1ccccc1)[C@@H](O)CN(Cc1ccc(-c2ccccn2)cc1)NC(=O)[C@@H](NC(=O)OC)C(C)(C)C)C(C)(C)C,,with: efflux inhibitor cocktail,,Papp A-B,72 ± 3.6 ×10⁻⁶ cm/s
O=c1cc(-c2ccc(O)cc2)oc2c([C@@H]3O[C@H](CO)[C@@H](O)[C@H](O)[C@H]3O)c(O)cc(O)c12,LC-MS/MS,"40 µM, 6 h",,Papp (apical to basolateral),38.5 ×10⁻⁶ cm/s
Cc1cc(O)c2c(c1)C(=O)c1cccc(O)c1C2=O,,"in Rhizoma extract, extract 0.025 mg/mL",baseline: Papp(B-A) over Papp(A-B),efflux ratio,2.07
O=S1(=O)OC(c2ccc(O)cc2)(c2ccc(O)cc2)c2ccccc21,,"5 µg/mL, 60 min, apical to basolateral",,Papp,~4.5 ×10⁻⁶ cm/s
C[C@H]1O[C@@H](O[C@H]2CC[C@@]3(C)[C@@H](CC[C@]4(C)[C@@H]3C=C[C@]35OC[C@@]6(CCC(C)(C)C[C@H]63)[C@@H](O)C[C@]54C)[C@]2(C)CO)[C@H](O)[C@@H](O[C@@H]2O[C@H](CO)[C@@H](O)[C@H](O)[C@H]2O)[C@H]1O,Caco-2 bidirectional transport,"10 µM, 3 h, 37 °C",,recovery apical to basolateral,70.3%
C=C[C@@H]1C[C@]1(NC(=O)[C@@H]1C[C@@H](Oc2ncc(OC)c3ccc(Cl)cc23)CN1C(=O)[C@@H](NC(=O)OC(C)(C)C)C(C)(C)C)C(=O)NS(=O)(=O)C1CC1,,with: efflux inhibitor cocktail,,Papp A-B,48 ± 9.9 ×10⁻⁶ cm/s
